Measured values pooled from the literature.
Lines come from different studies, so protocols differ. Numbers after ± are the reported error.

CCCCCCCCCCCCCCCC(=O)NCCOCCOCCOCCOCCOCCOCCOCCOCCC(=O)NCCCC[C@H](NC(=O)CNC(=O)[C@@H]1CSSC[C@H](N)C(=O)N[C@@H](Cc2ccc(O)cc2)C(=O)N[C@@H]([C@@H](C)CC)C(=O)N[C@@H](CCC(N)=O)C(=O)N[C@@H](CC(N)=O)C(=O)N1)C(=O)NCC(N)=O — half-life (male C57BL/6J mouse, plasma; subcutaneous, 20 mg/kg, depot formulation): 309 h
COc1ccc(-c2ccn(CC[C@](C)(C(=O)NO)S(C)(=O)=O)c(=O)c2)c(F)c1 — half-life (CF-1 mouse, female; subcutaneous, 75 mg/kg): 0.69 ± 0.03 h
CN(C(=O)c1ccn2ncc(-c3ccc(C(N)=O)cc3)c2c1)c1ccc(C#N)cn1 — half-life (CD-1 mouse, Wistar rat, rhesus monkey, plasma; oral, suspension, all three species): 2 to 4 h
Clc1ccc(C(c2c[nH]c3ccccc23)c2c[nH]c3ccccc23)cc1 — half-life (mouse C57BL/6 male, brain; oral, 25 mg/kg): 4.4 ± 0.283 h
CCC(=O)N(C)c1ccc(Cl)c(Cl)c1 — half-life (LC-MS/MS; C57BL/6 mouse female, plasma): ~0.5 h
CCc1nc(N)nc(N)c1C#C[C@H](C)c1cc(-c2cc(C)nc(C)c2)ccc1Cl — half-life (mouse, plasma; oral, 16 mg/kg): 4.5 h
CCN(CC)C(=O)c1ccc(-c2cc(NCCCN3CCCCC3)c3ccccc3n2)cc1 — half-life (mouse B6 male, plasma): ~5 h
CC(=O)N[C@@H](Cc1cnc[nH]1)C(=O)N[C@H](Cc1ccccc1)C(=O)N[C@@H](CCCNC(=N)N)C(=O)N[C@@H](Cc1c[nH]c2ccccc12)C(=O)NCCCOCCOCCOCCCNC(=O)COCC(=O)N[C@@H](Cc1cnc[nH]1)C(=O)N[C@H](Cc1ccc2ccccc2c1)C(=O)N[C@@H](CCCNC(=N)N)C(=O)N[C@@H](Cc1c[nH]c2ccccc12)C(N)=O — half-life (mouse): 6.9 h
CCS(=O)(=O)c1ccccc1C(=O)N1CCN(c2nc3ccc(F)cc3s2)C[C@@H]1C — half-life (mouse; intravenous, 3 mg/kg): 1.23 ± 0.0617 h
Cc1cccc(O[C@H]2CCC[C@@H](C(C)CNCc3ccncc3)C2)c1 (relative stereo) — half-life (C57BL/6 mouse female, plasma; oral, 25 mg/kg): 2.61 h
COc1ccc(C(=O)c2c(C(=O)NCCCN(C)C)oc3ccc(Cl)cc3c2=O)cc1OC — half-life (C57BL/6 mouse, male, brain; intraperitoneal and oral, 5 mg/kg): 6.6 to 11 h
Cc1c(C(=O)Nc2ccn(C)n2)ncn1Cc1cccc(C(F)(F)F)c1 — half-life (C57BL/6 mouse, plasma; oral, 10 mg/kg, single dose, mean): 1.4 h
O=C(Cc1ccc(-c2ccc(OCCN3CCOCC3)cc2)cn1)NCc1ccc(F)cc1 — half-life (ICR mouse; oral, 10 mg/kg): 2.3 ± 0.23 h
Cc1cc2c(c(=O)o1)C=C1CCC(C(C)CNCc3ccc(O)cc3)CC1O2 (stereo not shown) — half-life (mouse, plasma; intravenous, dose not given): 0.5 h
Cc1ccc2oc(-c3c4c(N)n[nH]c(=O)c4nn3-c3ccc(NC(=O)/C=C/CN4CCOCC4)cc3)c(C)c2c1 — half-life (BALB/c nude mouse, whole blood; 1 µM, 37 °C): 26 h
NC(=O)c1ccc(C(=O)NOCc2ccc(Sc3cccc(Cl)c3)c(C(F)(F)F)c2)cc1 — half-life (male ICR mouse, plasma; intraperitoneal, 30 mg/kg): 0.61 h

Repeated from above:
CC(=O)N[C@@H](Cc1cnc[nH]1)C(=O)N[C@H](Cc1ccccc1)C(=O)N[C@@H](CCCNC(=N)N)C(=O)N[C@@H](Cc1c[nH]c2ccccc12)C(=O)NCCCOCCOCCOCCCNC(=O)COCC(=O)N[C@@H](Cc1cnc[nH]1)C(=O)N[C@H](Cc1ccc2ccccc2c1)C(=O)N[C@@H](CCCNC(=N)N)C(=O)N[C@@H](Cc1c[nH]c2ccccc12)C(N)=O — half-life (mouse): 6.9 h
